Published values pooled from the literature.
Each line is one published result; not all experiments were run side by side. Numbers after ± are the reported error.

| Molecule | tested on | assay | system | conditions | how to read | measurement | value |
| --- | --- | --- | --- | --- | --- | --- | --- |
| colistin | Klebsiella pneumoniae | broth microdilution | clinical isolate RKI-No_94/15 | – | – | MIC | ≤ 0.5 mg/L |
| insulin icodec | – | – | human mild renal impairment | concentration not given | – | participants with adverse events | 42% |
| glucagon | – | – | aqueous solution | – | – | time to fibrillation | ~8 h |
| adrenomedullin | – | RP-HPLC | HALO RP-amide column | 25 µM, acetic acid/methanol, 25 min gradient | – | retention time | 11.6 min |
| human insulin | – | ELISA | pig, anaesthetized, serum | jejunal wall, 20 IU, -20 to +420 min, robotic ingestible pill | – | AUC | 83 ± 18 nmol·min/L |
| ACDDQNPWRAYLDLLFPTDTLLLDLLW | – | ex vivo fluorescence imaging | peptide, BALB/c mice, 4T1 tumour-bearing | intravenous, 5 nmol, 2 h post-injection, background-corrected mean fluorescence | relative to: tumour over muscle | contrast index | 5.6 ± 0.4 |
| pegcetacoplan | – | refers to: infections and infestations | patients with PNH | dose not given, phase Ib trial | – | number of TEAEs | 10 |
| bcp C50S (Escherichia coli) | – | UV-vis, refers to: Cys45 | – | reduced, folded, numbering of the source | – | pKa | 6.05 |
| GSGAGICTIV | human MAGI1-3/6 PDZ construct (MBP fusion) | surface plasmon resonance | peptide | concentration not given | higher = stronger binding | normalised SPR binding response | 12.3 normalised RU |
| ACEQNPIYWARYADWLFTTPLLLLDLALLVDADEGT | – | ex vivo fluorescence imaging | peptide, BALB/c mice, 4T1 tumour-bearing, kidney | intravenous, 5 nmol, 24 h post-injection | higher = more uptake | mean fluorescence intensity | 545 ± 85.9 a.u. |
| insulin aspart | – | ELISA, refers to: total insulin aspart | human, type 1 diabetes, serum | subcutaneous, dose not given, least squares mean, single dose | – | onset of appearance | 5.2 min |
| insulin degludec | – | – | human | subcutaneous, 0.4 IU/kg, 2 FC level, single dose, reference formulation | – | apparent volume of distribution | 33.4 ± 7.6 L |
| ACEEQNPWARYLEWLFPTETLLLEL | – | ex vivo fluorescence imaging | peptide, BALB/c mice, 4T1 tumour-bearing, liver | intravenous, 5 nmol, 24 h post-injection | higher = more uptake | mean fluorescence intensity | 217 ± 21.8 a.u. |
| Ubiquitin fragment (Homo sapiens) | – | NMR, refers to: Lys48 | – | – | – | pKa | 10.5 |
| Neuropeptide Y | – | RP-HPLC | HALO C18 column | 25 µM, acetic acid/methanol, 25 min gradient | – | retention time | 17.2 min |
| GSGAGRETEV | human SCRIB PDZ3-4 tandem (MBP fusion) | automated holdup | peptide, purified PDZ protein | concentration not given, unit not given | relative to: biotin control resin, higher = stronger binding | binding intensity | 0.961 |
